Measurements collected from several papers.
Parts stem from different laboratories: compare values within a part only. “And” joins repeats or separate records; there may be more than shown.

Sample 1 — organism: Plasmodium berghei; action: inhibitor; cells: Huh-7; strain: GFP-expressing, liver stage; tested at: 10 µM; time: 24 h; reference: untreated control; quantity: infection rate
SMILES = C=CCC1(C(C)CCC)C(=O)NC(=S)NC1=O (centres unmarked); value = 110%
SMILES = O=C(CCCN1CCC2(CC1)C(=O)NCN2c1ccccc1)c1ccc(F)cc1; value = 78.5%
SMILES = C[C@]12CC[C@H]3[C@@H](CCC4=CC(=O)CC[C@@]43C)[C@@H]1CC[C@@H]2O; value = 90.3%

Sample 2 — organism: Sarcocystis neurona; effect on: parasite activity; tested at: 10 µM; time: 96 h; quantity: activity class
SMILES = C[C@H]1CCC[C@H](O)CCCCCc2cc(O)cc(O)c2C(=O)O1; value = inactive
SMILES = Oc1cc(Cl)ccc1Oc1ccc(Cl)cc1Cl; value = inactive
SMILES = c1ccc(Cn2ccnc2)cc1; value = inactive

Sample 3 — organism: Cryptosporidium parvum; species: neonatal calves; dose: dose not given; direction: direction not given; quantity: fecal consistency score
SMILES: CNC(=O)c1ccc(-c2cnn3ccc(C(=O)N(C)c4ccc(Cl)c(C(=O)OC)c4)cc23)cc1
time = day 2 post-treatment; value = 1 and 3 and 2
time = day 4; setting = first reading; value = 2 and 1
time = day 6; setting = second reading; value = 2 and 1
time = day 5 post-treatment; value = 1 and 2
time = day 6; setting = first reading; value = 2 and 1

Sample 4 — cell line: mouse MPNST tumor cells; technique: high-content immunofluorescence imaging; item: nuclear SOX9; tested at: 10 µM; time: 12 h; setting: mean of 2 replicates; reference: DMSO control; direction: higher = more nuclear SOX9; quantity: nuclear SOX9 intensity
Compound = Fc1cc(F)c2c(c1)[C@H]1C=CC[C@H]1C(c1cccnc1)N2 (some centres unmarked); value = 106 % of DMSO
Compound = O=C(c1ccc(-c2cccc(C(F)(F)F)c2)o1)N1CCN2CCC1CC2; value = 150 % of DMSO
Compound = CC(C)(N)Cc1ccccc1; value = 104 % of DMSO
Compound = O=C(O)C1=CCCN(CCOC(c2ccc(C(F)(F)F)cc2)c2ccc(C(F)(F)F)cc2)C1; value = 87.4 % of DMSO
Compound = COC(=O)N1CCN(C(=O)Cc2ccc(Cl)c(Cl)c2)C(CN2CCCC2)C1 (centres unmarked); value = 99.6 % of DMSO
Compound = CC(C)(O)[C@H]1O[C@H]2CC[C@@]3(C)[C@@](O)(CC[C@H]4Cc5c([nH]c6ccccc56)[C@@]43C)C2=CC1=O; value = 105 % of DMSO
Compound = COc1ccc(Cc2nccc3cc(OC)c(OC)cc23)cc1OC; value = 109 % of DMSO
Compound = CC(C)(C)NCC(O)c1cc(Cl)c(N)c(Cl)c1 (centres unmarked); value = 89.6 % of DMSO
Compound = CC(=O)NCCCOc1ccc(C(=O)N2CCC(N3C(=O)CCc4ccccc43)CC2)cc1; value = 105 % of DMSO

Repeated from above (sample 4):
Compound = Fc1cc(F)c2c(c1)[C@H]1C=CC[C@H]1C(c1cccnc1)N2 (some centres unmarked); value = 106 % of DMSO
Compound = O=C(c1ccc(-c2cccc(C(F)(F)F)c2)o1)N1CCN2CCC1CC2; value = 150 % of DMSO
Compound = CC(C)(N)Cc1ccccc1; value = 104 % of DMSO
